Assay results gathered from unrelated publications.
Each numbered part is a random draw from the data of one study; scales do not carry over between parts. Positions count from the first letter of the parent shown.
Sequence of UniProt O15294 (whole entry, looked up): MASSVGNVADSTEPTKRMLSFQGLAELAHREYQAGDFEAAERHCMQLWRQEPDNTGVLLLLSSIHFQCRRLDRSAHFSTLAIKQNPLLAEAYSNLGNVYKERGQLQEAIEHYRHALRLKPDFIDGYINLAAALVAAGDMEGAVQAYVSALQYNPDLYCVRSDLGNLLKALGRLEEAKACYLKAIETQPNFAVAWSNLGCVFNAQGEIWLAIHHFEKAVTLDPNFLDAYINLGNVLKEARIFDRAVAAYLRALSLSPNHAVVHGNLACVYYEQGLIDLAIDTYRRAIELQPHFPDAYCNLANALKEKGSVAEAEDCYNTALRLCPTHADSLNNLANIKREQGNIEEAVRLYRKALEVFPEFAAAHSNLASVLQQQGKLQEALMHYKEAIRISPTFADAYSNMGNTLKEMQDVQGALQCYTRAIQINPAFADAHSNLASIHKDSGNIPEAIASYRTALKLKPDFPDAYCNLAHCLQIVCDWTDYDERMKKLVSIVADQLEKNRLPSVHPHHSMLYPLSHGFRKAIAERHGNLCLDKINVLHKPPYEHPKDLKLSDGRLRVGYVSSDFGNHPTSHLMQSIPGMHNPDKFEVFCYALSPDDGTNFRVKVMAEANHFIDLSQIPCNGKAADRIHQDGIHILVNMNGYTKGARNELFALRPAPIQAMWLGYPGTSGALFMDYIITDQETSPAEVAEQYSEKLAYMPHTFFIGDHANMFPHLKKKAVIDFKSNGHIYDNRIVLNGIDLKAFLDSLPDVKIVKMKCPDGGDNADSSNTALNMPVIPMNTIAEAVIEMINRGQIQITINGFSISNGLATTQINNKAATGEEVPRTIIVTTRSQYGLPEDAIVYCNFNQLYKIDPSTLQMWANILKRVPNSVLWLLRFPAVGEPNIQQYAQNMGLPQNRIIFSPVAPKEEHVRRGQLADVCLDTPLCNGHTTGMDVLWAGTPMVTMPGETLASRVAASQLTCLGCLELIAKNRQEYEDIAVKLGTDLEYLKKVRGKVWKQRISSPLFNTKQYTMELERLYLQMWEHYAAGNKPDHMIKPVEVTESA

Study 1
Target: RNA binding protein fox-1 homolog 2, RRM domain, GST-SBP tag (RBFOX2, Homo sapiens, UniProt O43251-10, residues 100-194)
Method: RNA Bind-n-Seq
Form: RNA
Sample: in vitro
Tested at: 365 nM
Notes: natural RNA segment, single round, ends assumed
Baseline: no-protein control
Reading: higher = stronger binding
Shared flanks, not repeated: GGGAGUUCUACAGUCCGACGAUC … UGGAAUUCUCGGGUGCCAA
Target sequence (chain): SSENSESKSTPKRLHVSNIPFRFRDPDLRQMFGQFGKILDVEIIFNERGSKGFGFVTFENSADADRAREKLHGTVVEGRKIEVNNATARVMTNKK
`GUCUUUCCUAUGAAAAUGCCAUCUGUAGACCUUGUGAGUCAGCCGUCCAGAUGUUUGCAGGUGAAUUCCUCUGCUUGACAUCCUCCCUGUCACUUUGGACCCUAUGGGAG`: “RBNS enrichment (R)” 0.536.
`UCCUGUUCCCUUUGACUUCAGCUGCCUGAAACAGCCAUGUCCAAGUUCUUCACCUCUAUCCAAAGGACUUGAUUUGCAUGGUAUUGGAUAAAUCAUUUCAGUAUCCUCUC`: “RBNS enrichment (R)” 2.44.
`AGUUUUAAGAUCAACCAAUAGAUAUAUAUCCUACAAUUGAUAUAUUGCUUUAUUCACACUUUUAUUGUGGCUGAAUUUUUGUGCCUAUCUAUAAAACACACUUUCAAAUU` — result for “RBNS enrichment (R)”: 0.482.
Under “RBNS enrichment (R)”, `UUUUAUAUAAAUUUCCCACGUUACGGGGCCUUGUUUUGCAUGCUGAUGAAGAACUACUUAAAACUAACAGUUAAAAUCAGCUUGCCUCCCCUAGUAGAAGCAGGUUCUUG` is recorded as 0.935.
Under “RBNS enrichment (R)”, `CUCCUCCCCCAAGAGCACAAACAUCUUACCACCCAUCGUGUGACCCUCGUGGCAGGCGGGCAUGUCCCGCUCCCUUCCGCCACCAAUUUGUAUUAGAGAAGGCACUUUGA` is recorded as 1.18.
For `AGUAUCACCAGGCACUAUAUUUCAUCUUUGAGGCUUUUGUUAUACCAAGGAAUACUAUAUAAAGUAAUGAGACUGGUUUAAAGUAACAUGCCAGAACUUACGCAUCCAAU`, “RBNS enrichment (R)” read 0.767.
For `AUUAACUCCCCUUUCCCUCAAACUCUCACGGCCUGAUGAUUGUCCCUCUCAGGGAUGAGACAUGGACAGGUCUCUGGAACGUUAUGGGUAAUGAGCCCCAGCAACUGUCC`, “RBNS enrichment (R)” read 0.296.
Under “RBNS enrichment (R)”, `AAAGAGGGGUACCUGUUUUCAUUUGAAAACUUUGAUUCAUGGAACCUUUAAAACUAAUCUCAGAAAAAUUUUUGGUGCCCAUGCAGCUGUAGUUGUUCACUGCUUUCCUG` is recorded as 0.345.

Study 2
Target: RING finger protein unkempt homolog, zinc fingers 1-6, GST-SBP tag (UNK, Homo sapiens, UniProt Q9C0B0, residues 30-357)
Method: RNA Bind-n-Seq
Form: RNA
Sample: in vitro
Tested at: not given
Notes: RNA with constant flanks, human and mouse sites, ends assumed
Baseline: input RNA pool
Reading: higher = stronger binding
Shared flanks, not repeated: GGGAGUUCUACAGUCCGACGAUC … CAACAGAGGAUUGAGCAUCA
Residues (chain): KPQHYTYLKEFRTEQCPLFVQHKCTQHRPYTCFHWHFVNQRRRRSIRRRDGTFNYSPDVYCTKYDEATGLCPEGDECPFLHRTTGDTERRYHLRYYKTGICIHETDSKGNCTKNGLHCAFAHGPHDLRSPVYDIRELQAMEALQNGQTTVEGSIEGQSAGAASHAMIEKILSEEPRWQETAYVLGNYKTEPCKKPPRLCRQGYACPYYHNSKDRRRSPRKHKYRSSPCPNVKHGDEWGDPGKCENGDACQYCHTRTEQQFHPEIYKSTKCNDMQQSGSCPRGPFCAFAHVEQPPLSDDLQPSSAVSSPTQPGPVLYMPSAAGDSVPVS
The bound/input enrichment of `GAUGUUACCCAGGAGGAGCUCGGUGGUGCCAAGACCCACACCACCAUGUCAGGUGUGGCCCACAGAGCUUUUGAAAAUGAUGUUGAUGCCUUGUGUAAUCUCCGGGAUUUCUUCAACUAC` is reported as 0.0961 ratio.
`UUUGUUUCCAGGGACAAAUUAAAUUUGUAUGAUUACCCAAAAAAGGGUCUCAGUUUACAGAUGCUAACUCUAUAUAAAGGAAUGUGGAAAAACUCAGUUCUUAAGUUACAAGAUUAAAAA` gave a bound/input enrichment of 0.147 ratio.
`AAAACAGAAUCAAAAAUAAAAUAAAAAUCAAUGCGGUCUCUUUGCAGAAUGUUUUGCUUGAUGUUUAAAAAAGUACCUUGGAUCUUAUUUUGUAAAUAUUUACAUUUUUGUUAAAAAAUA` has a bound/input enrichment of 0.377 ratio.
With `AUCCAUGCUGCAUCUUUGAAGCUGCUACAGGACCAAGGACUGAAUAUUCCAAGUGUUGUUAAUUUUCAGAUAAUCUCCACCUACAAGCAUAUGAAGCUGCACAAGAUGCUUGAAAAUACA` the bound/input enrichment was 0.125 ratio.
For `CUCCUGCAGGACAUCGUCCUCCAUGUUUUUAAGUAUUUGCCUCUUCUUGACCGGGCUCAUGCUUCCCAAGUGUGCCGGAAUUGGAAUCAGGUAUUUCACAUGCCUGACUUGUGGCGAUGU`, the bound/input enrichment was 0.169 ratio.
For `UGCGUCAAUCCAGAAAUACAGUAUGUGAAGAUCAAAGAUGUGGCCAGGGGAAAAUUAUUCAUCUUAACGGAAGCCAGAUUAUCGGCCCUCUAUAAGCAAGAGAGCGACUAUGAGAUACUU`, the bound/input enrichment was 0.282 ratio.
The bound/input enrichment of `GGGCAGUUUGCGUUCCAUGUUGGUCUUCCUGCAAAAUCUGGAGUUGCUGGGGGUAUUCUUUUAGUUGUCCCCAACGUCAUGGGCAUGAUGUGUUGGUCUCCUCCUCUUGACAAGAUGGGC` is reported as 0.269 ratio.
For `GCAGGAAAAACGAAAUUACUUGCAAUUAUGCCAGAUGAGCUGAAGCACAUUAUUGGGGCUGAGACAACACGGAAAGGUAUUCUUCGUGUUUUUGAAAUGUUUCAGCACAACCAAUUAAAU`, the bound/input enrichment was 0.2 ratio.

Further values, each from its own experiment
P1: PafA, mature enzyme, eGFP fusion (Elizabethkingia meningoseptica, UniProt Q9KJX5); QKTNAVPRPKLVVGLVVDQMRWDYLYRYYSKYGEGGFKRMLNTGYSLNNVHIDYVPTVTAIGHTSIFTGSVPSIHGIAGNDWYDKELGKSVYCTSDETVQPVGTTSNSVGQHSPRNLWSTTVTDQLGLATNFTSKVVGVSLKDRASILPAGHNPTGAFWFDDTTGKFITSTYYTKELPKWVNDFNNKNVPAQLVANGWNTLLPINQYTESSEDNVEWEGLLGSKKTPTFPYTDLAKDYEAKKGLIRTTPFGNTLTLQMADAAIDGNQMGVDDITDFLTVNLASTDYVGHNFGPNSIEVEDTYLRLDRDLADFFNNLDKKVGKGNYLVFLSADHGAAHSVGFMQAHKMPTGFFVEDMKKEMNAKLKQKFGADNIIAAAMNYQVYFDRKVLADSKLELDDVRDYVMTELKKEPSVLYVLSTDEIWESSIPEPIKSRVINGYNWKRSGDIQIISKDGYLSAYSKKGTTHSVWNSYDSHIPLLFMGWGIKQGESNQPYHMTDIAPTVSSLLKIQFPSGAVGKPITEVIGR
`P1 Y231G` — result for “phosphate dissociation constant”: 167 µM (inorganic phosphate, free oxyanion; microfluidic competitive inhibition; in vitro, cell-free expressed; not given, derived from inhibition constants, unchanged parent 615000 nM; lower = stronger binding).
`ASWSRYHVHDHIHDF`: “minimum log2 enrichment ratio” 2.38 (UDP-N-acetylglucosamine--peptide N-acetylglucosaminyltransferase 110 kDa subunit (OGT, Homo sapiens, UniProt O15294); binding, phage display NGS; peptide; panning round 2; baseline: input library).

Some of these lines once more (study 1):
For `AUUAACUCCCCUUUCCCUCAAACUCUCACGGCCUGAUGAUUGUCCCUCUCAGGGAUGAGACAUGGACAGGUCUCUGGAACGUUAUGGGUAAUGAGCCCCAGCAACUGUCC`, “RBNS enrichment (R)” read 0.296.
